Literature values that unrelated publications cite.
Compare with care: the assays were run in different laboratories.
Sequence of UniProt P51812 (whole entry, looked up): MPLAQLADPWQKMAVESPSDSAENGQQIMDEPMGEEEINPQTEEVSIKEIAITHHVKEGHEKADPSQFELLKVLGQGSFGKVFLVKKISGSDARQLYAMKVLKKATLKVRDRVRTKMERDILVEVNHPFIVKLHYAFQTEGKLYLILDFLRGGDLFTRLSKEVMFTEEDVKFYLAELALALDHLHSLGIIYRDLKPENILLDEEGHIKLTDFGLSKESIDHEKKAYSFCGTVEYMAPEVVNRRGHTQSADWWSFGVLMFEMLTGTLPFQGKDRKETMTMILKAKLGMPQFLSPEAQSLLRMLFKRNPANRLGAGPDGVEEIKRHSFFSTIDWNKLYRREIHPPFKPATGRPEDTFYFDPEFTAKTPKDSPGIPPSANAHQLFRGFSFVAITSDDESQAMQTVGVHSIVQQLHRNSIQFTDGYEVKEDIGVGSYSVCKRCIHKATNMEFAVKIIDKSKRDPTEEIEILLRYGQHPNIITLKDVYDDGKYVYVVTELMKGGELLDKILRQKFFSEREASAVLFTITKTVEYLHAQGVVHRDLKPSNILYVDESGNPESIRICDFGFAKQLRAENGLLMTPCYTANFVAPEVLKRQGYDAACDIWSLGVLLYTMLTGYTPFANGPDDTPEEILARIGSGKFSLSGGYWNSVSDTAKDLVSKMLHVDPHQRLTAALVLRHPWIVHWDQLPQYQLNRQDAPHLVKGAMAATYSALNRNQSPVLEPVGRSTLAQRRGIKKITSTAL
Sequence of UniProt Q9UNQ0 (whole entry, looked up): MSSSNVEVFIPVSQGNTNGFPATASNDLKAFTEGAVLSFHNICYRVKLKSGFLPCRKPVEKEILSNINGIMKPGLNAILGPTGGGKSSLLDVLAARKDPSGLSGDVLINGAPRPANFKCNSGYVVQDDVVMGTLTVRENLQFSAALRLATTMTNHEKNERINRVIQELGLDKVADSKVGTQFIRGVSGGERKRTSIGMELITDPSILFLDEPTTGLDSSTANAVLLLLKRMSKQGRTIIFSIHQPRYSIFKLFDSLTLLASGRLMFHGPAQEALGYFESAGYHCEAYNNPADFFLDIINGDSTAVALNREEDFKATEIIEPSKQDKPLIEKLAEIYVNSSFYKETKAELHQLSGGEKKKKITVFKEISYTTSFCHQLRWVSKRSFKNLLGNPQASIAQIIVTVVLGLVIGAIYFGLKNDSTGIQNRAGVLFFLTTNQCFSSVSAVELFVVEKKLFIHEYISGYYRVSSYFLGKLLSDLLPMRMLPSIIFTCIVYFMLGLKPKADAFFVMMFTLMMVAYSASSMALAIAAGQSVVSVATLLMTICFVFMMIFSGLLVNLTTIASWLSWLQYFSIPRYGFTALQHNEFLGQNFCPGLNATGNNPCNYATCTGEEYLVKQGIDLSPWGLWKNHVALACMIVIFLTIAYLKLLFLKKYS
Sequence of UniProt P10632 (whole entry, looked up): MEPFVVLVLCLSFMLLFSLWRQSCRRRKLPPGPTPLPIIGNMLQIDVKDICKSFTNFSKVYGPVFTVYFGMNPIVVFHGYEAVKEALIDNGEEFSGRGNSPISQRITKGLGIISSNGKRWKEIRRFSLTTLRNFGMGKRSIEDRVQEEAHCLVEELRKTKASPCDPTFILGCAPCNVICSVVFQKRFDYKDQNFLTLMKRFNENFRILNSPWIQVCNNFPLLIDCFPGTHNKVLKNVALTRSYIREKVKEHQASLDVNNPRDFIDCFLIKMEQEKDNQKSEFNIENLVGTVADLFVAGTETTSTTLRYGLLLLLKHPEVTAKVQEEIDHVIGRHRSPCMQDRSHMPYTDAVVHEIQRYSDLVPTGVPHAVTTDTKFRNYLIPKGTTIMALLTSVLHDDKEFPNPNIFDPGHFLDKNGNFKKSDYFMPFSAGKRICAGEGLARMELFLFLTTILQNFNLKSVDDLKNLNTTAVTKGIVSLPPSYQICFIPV
Sequence of UniProt P49720 (whole entry, looked up): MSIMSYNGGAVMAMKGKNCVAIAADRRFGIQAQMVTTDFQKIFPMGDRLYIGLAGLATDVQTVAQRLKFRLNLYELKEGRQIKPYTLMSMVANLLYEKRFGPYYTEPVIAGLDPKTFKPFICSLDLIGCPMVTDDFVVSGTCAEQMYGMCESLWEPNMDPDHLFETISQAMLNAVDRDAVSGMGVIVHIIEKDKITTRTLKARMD
Sequence of UniProt O14757 (whole entry, looked up): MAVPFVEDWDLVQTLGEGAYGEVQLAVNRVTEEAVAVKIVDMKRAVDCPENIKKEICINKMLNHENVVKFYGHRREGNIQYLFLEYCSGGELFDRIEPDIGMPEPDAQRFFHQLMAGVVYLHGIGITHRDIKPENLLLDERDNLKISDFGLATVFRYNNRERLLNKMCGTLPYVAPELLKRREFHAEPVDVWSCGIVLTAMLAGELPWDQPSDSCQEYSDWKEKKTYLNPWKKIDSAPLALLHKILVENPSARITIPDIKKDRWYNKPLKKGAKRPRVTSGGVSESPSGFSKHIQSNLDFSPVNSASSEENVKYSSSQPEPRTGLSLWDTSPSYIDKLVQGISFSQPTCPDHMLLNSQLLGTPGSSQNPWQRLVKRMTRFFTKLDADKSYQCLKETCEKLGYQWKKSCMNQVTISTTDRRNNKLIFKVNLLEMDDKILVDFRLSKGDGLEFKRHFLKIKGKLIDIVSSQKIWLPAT
Sequence of UniProt P20618 (whole entry, looked up): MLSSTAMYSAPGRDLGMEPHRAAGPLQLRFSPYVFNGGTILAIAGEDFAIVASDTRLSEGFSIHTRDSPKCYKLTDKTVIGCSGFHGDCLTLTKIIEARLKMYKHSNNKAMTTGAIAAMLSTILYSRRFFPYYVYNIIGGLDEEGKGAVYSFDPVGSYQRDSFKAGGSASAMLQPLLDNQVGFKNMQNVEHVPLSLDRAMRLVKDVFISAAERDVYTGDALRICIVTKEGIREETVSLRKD
Sequence of UniProt Q12888 (whole entry, looked up): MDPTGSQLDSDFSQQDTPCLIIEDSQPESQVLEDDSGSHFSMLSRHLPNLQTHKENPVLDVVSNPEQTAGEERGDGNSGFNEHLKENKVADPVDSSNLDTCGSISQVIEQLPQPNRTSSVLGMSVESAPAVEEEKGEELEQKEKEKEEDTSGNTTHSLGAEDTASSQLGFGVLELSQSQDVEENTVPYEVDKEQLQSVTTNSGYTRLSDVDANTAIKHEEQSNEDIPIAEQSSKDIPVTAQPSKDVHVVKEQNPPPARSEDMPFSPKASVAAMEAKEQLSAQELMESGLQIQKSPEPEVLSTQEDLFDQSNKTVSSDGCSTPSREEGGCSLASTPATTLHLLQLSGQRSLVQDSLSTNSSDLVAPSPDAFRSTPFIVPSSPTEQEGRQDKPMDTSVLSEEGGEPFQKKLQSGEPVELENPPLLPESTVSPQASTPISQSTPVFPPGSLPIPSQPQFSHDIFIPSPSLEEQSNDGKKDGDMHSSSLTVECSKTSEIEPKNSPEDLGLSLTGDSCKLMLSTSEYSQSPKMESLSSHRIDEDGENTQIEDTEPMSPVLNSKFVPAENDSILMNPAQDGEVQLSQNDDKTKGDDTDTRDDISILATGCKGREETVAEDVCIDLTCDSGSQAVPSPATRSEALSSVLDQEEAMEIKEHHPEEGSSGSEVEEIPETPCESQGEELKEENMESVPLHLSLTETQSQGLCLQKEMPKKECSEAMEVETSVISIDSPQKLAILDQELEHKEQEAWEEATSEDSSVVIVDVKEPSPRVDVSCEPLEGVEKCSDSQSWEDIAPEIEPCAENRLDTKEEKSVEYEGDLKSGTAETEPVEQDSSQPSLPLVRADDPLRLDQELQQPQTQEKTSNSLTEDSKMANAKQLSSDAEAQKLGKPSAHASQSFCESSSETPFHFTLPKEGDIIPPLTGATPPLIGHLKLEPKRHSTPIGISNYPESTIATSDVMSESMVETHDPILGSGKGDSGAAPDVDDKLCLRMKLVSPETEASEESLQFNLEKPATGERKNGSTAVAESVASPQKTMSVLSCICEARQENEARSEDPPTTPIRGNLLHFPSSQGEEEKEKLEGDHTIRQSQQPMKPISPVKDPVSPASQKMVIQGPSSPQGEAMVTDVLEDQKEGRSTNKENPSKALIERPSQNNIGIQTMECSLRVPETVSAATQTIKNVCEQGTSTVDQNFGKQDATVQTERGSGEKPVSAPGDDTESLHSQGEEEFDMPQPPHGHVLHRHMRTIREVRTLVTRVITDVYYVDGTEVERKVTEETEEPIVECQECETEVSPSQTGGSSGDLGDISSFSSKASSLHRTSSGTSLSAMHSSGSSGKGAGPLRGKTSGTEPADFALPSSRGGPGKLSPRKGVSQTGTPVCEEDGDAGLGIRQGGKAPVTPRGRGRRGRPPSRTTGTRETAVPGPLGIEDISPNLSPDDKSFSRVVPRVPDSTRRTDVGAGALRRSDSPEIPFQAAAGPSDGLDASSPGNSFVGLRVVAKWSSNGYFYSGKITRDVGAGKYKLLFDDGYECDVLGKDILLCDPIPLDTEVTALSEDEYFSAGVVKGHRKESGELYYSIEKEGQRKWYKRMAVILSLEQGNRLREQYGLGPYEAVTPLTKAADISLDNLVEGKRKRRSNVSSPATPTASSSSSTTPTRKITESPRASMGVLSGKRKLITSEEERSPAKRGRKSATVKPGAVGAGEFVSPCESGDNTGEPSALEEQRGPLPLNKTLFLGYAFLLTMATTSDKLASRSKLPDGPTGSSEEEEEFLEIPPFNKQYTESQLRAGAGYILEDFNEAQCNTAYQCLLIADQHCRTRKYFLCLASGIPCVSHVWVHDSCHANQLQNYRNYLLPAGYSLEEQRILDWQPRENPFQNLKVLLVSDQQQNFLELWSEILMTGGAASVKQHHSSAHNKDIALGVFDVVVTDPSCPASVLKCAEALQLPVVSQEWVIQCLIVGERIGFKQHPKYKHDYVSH
Sequence of UniProt P28074 (whole entry, looked up): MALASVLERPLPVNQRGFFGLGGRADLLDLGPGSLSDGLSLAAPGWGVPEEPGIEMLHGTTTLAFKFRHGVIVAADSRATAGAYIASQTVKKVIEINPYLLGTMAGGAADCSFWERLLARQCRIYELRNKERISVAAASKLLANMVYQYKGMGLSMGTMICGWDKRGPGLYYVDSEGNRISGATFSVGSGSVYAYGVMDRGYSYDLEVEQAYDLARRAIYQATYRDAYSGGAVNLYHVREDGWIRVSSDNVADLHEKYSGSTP

O=C(O)CCCCCCCC(=O)O
IC50 (tyrosinase; inhibitor): > 369 µM

CC(C)[C@H](NC(=O)[C@H](CCCNC(=N)N)NC(=O)N[C@@H](Cc1ccccc1)C(=O)O)C(=O)N[C@H](C=O)CCCNC(=N)N
IC50 (Cathepsin B (CTSB, Homo sapiens, UniProt P07858); literature value): 0.48 µM

CNC(C)C1CCC(N)C(OC2C(N)CC(N)C(OC3OCC(C)(O)C(NC)C3O)C2O)O1 (centres unmarked)
MIC (Enterobacter cloacae; clinical isolate RKI-No_733/14): > 8 mg/L

OC(Cn1cncn1)(Cn1cncn1)c1ccc(F)cc1F
IC50 (CYP17A1 lyase; oestrogen synthesis): 28 µM

CCn1cc(-c2ccnc3[nH]c(-c4cccc(CN(C)C)c4)cc23)c(-c2ccc(NC(=O)N(C)C)cc2)n1
IC50 (Aurora kinase C (AURKC, Homo sapiens, UniProt Q9UQB9); kinase activity, inhibitor): 0.0015 µM

Oc1ccc(-c2ccc(-c3[nH]nc4c3Cc3cc(O)ccc3-4)cc2)cc1
IC50 (Serine/threonine-protein kinase Chk1 (CHEK1, Homo sapiens, UniProt O14757); inhibitor): 0.0044 µM

O=C(OC[C@H]1O[C@@H](OC(=O)c2cc(O)c(O)c(O)c2)[C@H](OC(=O)c2cc(O)c(O)c(O)c2)[C@@H](OC(=O)c2cc(O)c(O)c(O)c2)[C@@H]1O)c1cc(O)c(O)c(O)c1
IC50 (tyrosinase; inhibitor): 30 µM

Cn1cc(C2=C(c3cn(CCCSC(=N)N)c4ccccc34)C(=O)NC2=O)c2ccccc21
IC50 (Ribosomal protein S6 kinase alpha-3 (RPS6KA3, Homo sapiens, UniProt P51812); kinase activity, inhibitor): 0.036 µM

O=C(/C=C/c1ccc(O)cc1)NCCc1c[nH]c2ccc(O)cc12
IC50 (tyrosinase; inhibitor): 74 µM

Clc1ccc(C2(c3ccc(-c4cn[nH]c4)cc3)CCNCC2)cc1
IC50 (Ribosomal protein S6 kinase beta-1 (RPS6KB1, Homo sapiens, UniProt P23443); inhibitor): 0.085 µM

Cc1nc2cc(C(=O)N(C)C)cc(O[C@H]3CCOc4cc(F)cc(F)c43)c2[nH]1
IC50 (H+/K+-ATPase; enzyme activity, inhibitor): 0.13 µM

Nc1cc(C(F)(F)F)c(-c2nc(N3CCOCC3)nc(N3CCOCC3)n2)cn1
remaining activity (Testis-specific serine/threonine-protein kinase 1 (TSSK1B, Homo sapiens, UniProt Q9BXA7); enzyme activity; 10 µM; baseline: untreated): 90%

C[C@@]12C(=O)OC(=O)[C@]1(C)[C@H]1CC[C@@H]2O1
IC50 (protein phosphatase 2A; enzyme activity, inhibitor): 0.04 µM

COc1ccc(CCc2cc(OC)c(OC)c(OC)c2)cc1O
IC50 (sortase A, Staphylococcus aureus; inhibitor): 20.9 mg/L

C#CCOc1ccccc1CCCCCC(=O)NS(C)(=O)=O
IC50 (Cytochrome P450 2C9 (CYP2C9, Homo sapiens, UniProt P11712); inhibitor): 11 µM

O=C1O[C@H]2[C@@H]3OC(=O)c4cc(O)c(O)c(O)c4-c4c(O)c(O)c5oc(=O)c6c(c(O)c(O)c7oc(=O)c4c5c76)-c4c(cc(O)c(O)c4O)C(=O)OC[C@H]3OC(O)[C@@H]2OC(=O)c2cc(O)c(O)c(O)c2-c2c1cc(O)c(O)c2O (mixture of isomers)
IC50 (sortase A, Staphylococcus aureus; inhibitor): 4.23 mg/L

O=C(O)c1cc(O)c(O)c(OC(=O)c2cc(O)c(O)c(O)c2)c1
IC50 (tyrosinase; inhibitor): > 100 µM

CC1=NN(c2ccc(C)c(C)c2)C(=O)/C1=N\Nc1cccc(-c2cccc(C(=O)O)c2)c1O
IC50 (Broad substrate specificity ATP-binding cassette transporter ABCG2 (ABCG2, Homo sapiens, UniProt Q9UNQ0); inhibitor): 2.7 µM

CCOCC(=O)N1CCC[C@H](C(=O)NCc2nc(-c3ccc(C#N)cc3)cs2)C1
IC50 (PSMB1/PSMB5/PSMB3 (Homo sapiens, UniProt P20618+P28074+P49720); enzyme activity, inhibitor): > 30 µM

CCN(CC)CCOC(=O)c1ccc(N)cc1
IC50 (NMDA receptor): 296 µM

COc1ccc(-c2cc(=O)c3c(O)cc(O)cc3o2)cc1
IC50 (tyrosinase; inhibitor): 779 µM

CC(C)(C)NCCCNC(=O)c1cccc(Br)c1
IC50 (TP53-binding protein 1, tandem tudor domain (Homo sapiens, UniProt Q12888); binding; tandem tudor domain): 29 µM

OC(Cn1cncn1)(Cn1cncn1)c1ccc(F)cc1F
IC50 (Cytochrome P450 2C8 (CYP2C8, Homo sapiens, UniProt P10632); inhibitor): > 200 µM

CC(C)(O/N=C(\C(=O)N[C@@H]1C(=O)N2C(C(=O)[O-])=C(C[n+]3ccccc3)CS[C@H]12)c1csc(N)n1)C(=O)O
MIC (Escherichia coli; clinical isolate RKI-No_592/16): ≤ 2 mg/L

O=C1NN(c2cccc(Cl)c2)C(=O)C1=Cc1ccc(-c2ccc(C(=O)O)c(Cl)c2)o1
IC50 (KEAP1 NRF2-binding domain): 15.2 µM

Oc1ccc([C@@H]2c3c(O)cc(O)cc3[C@@H]3c4c(cc(O)c5c4[C@@H]2[C@H](c2ccc(O)cc2)[C@H]5c2cc(O)cc4c2[C@H](c2cc(O)cc(O)c2)[C@@H](c2ccc(O)cc2)O4)O[C@H]3c2ccc(O)cc2)cc1
IC50 (α-amylase; enzyme activity, inhibitor): 1140 µM

A few entries again:
CC(C)(C)NCCCNC(=O)c1cccc(Br)c1
IC50 (TP53-binding protein 1, tandem tudor domain (Homo sapiens, UniProt Q12888); binding; tandem tudor domain): 29 µM

OC(Cn1cncn1)(Cn1cncn1)c1ccc(F)cc1F
IC50 (Cytochrome P450 2C8 (CYP2C8, Homo sapiens, UniProt P10632); inhibitor): > 200 µM
